Measurements from different studies.
Every numbered part comes from another study and shows a few of its results, in no order. Positions count from the first letter of the parent shown.

Block 1
Target: CCND3, cyclin fold, Cln2 fusion (human)
Method: yeast growth competition, sequencing
Matrix: yeast
Setting: weak parent motif
Baseline: not given
Reading: higher = stronger binding
Measurement: normalised enrichment score
Starting sequence: CABLES2 docking peptide (human); ICAKRSLCAAFSV; partner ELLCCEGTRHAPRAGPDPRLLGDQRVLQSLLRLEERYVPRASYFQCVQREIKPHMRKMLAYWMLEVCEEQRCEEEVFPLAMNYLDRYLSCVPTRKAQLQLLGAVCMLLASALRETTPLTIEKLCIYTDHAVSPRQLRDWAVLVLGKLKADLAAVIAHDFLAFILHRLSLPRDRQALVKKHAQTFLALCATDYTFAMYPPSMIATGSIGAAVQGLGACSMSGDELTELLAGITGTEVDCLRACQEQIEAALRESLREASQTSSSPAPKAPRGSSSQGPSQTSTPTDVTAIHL
ICAKRSLCAAFSA [V13A]: 0.283
ICAKRALCAAFSV [S6A]: 0.506
IAAKRSLCAAFSV [C2A]: -0.26
ICAKRSLAAAFSV [C8A]: -0.0337
ICAKRSACAAFSV [L7A]: -0.086

Block 2
Target: PABPC1L2, full length, GST fusion (mouse, UniProt A0ABA7IW68)
Method: RNAcompete
Form: RNA
Matrix: in vitro
Tested at: 20 nM
Setting: 7-mer, probes averaged, single round
Baseline: mean of 7-mers
Reading: higher = stronger binding
Measurement: 7-mer Z-score
Construct (chain): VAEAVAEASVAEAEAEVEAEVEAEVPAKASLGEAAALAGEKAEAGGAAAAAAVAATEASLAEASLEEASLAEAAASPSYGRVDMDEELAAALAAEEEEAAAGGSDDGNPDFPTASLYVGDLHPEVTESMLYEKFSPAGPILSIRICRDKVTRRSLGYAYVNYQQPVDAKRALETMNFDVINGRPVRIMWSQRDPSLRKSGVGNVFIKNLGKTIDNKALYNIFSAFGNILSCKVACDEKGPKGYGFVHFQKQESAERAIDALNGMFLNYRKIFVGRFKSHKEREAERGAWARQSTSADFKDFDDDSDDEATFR
GUGGCGC: -0.0663
AGCCUCU: -0.414
CGUAUAU: -0.237
UUCAAUG: -0.195
GGGACGU: 0.0968
CGUUUAG: -0.358
GACUAUA: -0.0754
UAAAACG: 2.05
GGCCGCG: -0.13
UAUAUGU: -0.153
UCCCUCC: -0.42
UCUUGAG: -0.342
GAUACCA: -0.0645
CAUGACU: -0.135
AACUCCA: 0.066
GUAGUAG: -0.208
GGCGUGU: -0.0754
UCGUGGG: -0.113
AACGCGA: -0.00108
ACCACAC: -0.142
GCCAUUC: -0.262
UCUACCC: -0.365
AACACUG: 0.213
CGCAUGC: -0.179
UUAUCCC: -0.436

Block 3
Target: UBE2L3 UBC core domain (UniProt P68036)
Sequence of UniProt P68036 (whole entry, looked up): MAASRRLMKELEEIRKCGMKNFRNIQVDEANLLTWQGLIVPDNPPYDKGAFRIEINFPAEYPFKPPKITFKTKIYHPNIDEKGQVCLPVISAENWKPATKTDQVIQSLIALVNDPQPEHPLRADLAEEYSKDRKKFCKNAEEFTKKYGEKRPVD
Method: yeast two-hybrid
Matrix: yeast
Setting: mostly zero background
Baseline: not given
Reading: higher = stronger interaction
Measurement: lacZ reporter activity
B1: TRIM63 RING domain (UniProt Q969Q1); chain PMENLEKQLICPICLEMFTKPVVILPCQHNLCRKCANDIFQAANPYWTSRGSSVSMSGGRFRCPTCRHEVIMDRHGV
B2: TRIM72 RING domain (UniProt Q6ZMU5); chain APGLLHQELSCPLCLQLFDAPVTAECGHSFCRACLGRVAGEPAADGTVLCPCCQAPTRPQALST
B3: ARK2C RING domain (UniProt Q6ZSG1); chain EGEESDTDEKCTICLSMLEDGEDVRRLPCMHLFHQLCVDQWLAMSKKCPICRVDIETQLGAD
B4: IRF2BPL RING domain (UniProt Q9H1B7); chain SPMANSGPLCCTICHERLEDTHFVQCPSVPSHKFCFPCSRESIKAQGATGEVYCPSGEKCPLVGSNVP
B1 (TRIM63 RING domain): 0
QLRRLQEERTCKVCMDKEVSVVFIPCGHLVVCQECAPSLRKCPICRGIIKGTVRTF (BIRC2 RING domain (UniProt Q13490)): 0
QLRRLQEERTCKVCMDKEVSIVFIPCGHLVVCKDCAPSLRKCPICRSTIKGTVRTF (BIRC3 RING domain (UniProt Q13489)): 0
DDENSDNSNECVVCLSDLRDTLILPCRHLCLCTSCADTLRYQANNCPICRLPFRALLQIR (MGRN1 RING domain (UniProt O60291)): 0
QHHELTSLFECPVCFDYVLPPILQCQAGHLVCNQCRQKLSCCPTCRGALTPSIRNL (SIAH2 RING domain (UniProt O43255)): 0
RLTMMWEEVTCPICLDPFVEPVSIECGHSFCQECISQVGKGGGSVCPVCRQRFLLKNLRP (TRIM21 RING domain (UniProt P19474)): 0
B2 (TRIM72 RING domain): 0
YWAMDSTFELCKICAESNKDVKIEPCGHLLCSCCLAAWQHSDSQTCPFCRCEIKGWEAVS (CBLC RING domain (UniProt Q9ULV8)): 0
KTLSRFGIQPCSICLGDAKDPVCLPCDHVHCLRCLRAWFASEQMICPYCLTALPDEFSPA (RNF213 RING domain (UniProt Q63HN8)): 0
B3 (ARK2C RING domain): 0
B4 (IRF2BPL RING domain): 0

Block 4
Target: ABI1, truncated, D143A, DHFR fusion (Arabidopsis thaliana)
Method: DHFR PCA, deep sequencing
Matrix: yeast
Setting: methotrexate growth selection, single substitutions
With: (+)-ABA 710 µM
Baseline: wild-type fitted maximum
Reading: higher = stronger binding
Measurement: relative binding score
Starting sequence: PYL1, truncated, DHFR fusion (Arabidopsis thaliana); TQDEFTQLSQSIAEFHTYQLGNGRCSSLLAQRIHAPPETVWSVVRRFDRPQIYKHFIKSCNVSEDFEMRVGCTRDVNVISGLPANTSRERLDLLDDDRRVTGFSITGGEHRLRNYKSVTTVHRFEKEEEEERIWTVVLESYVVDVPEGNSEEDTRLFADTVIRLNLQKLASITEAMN
R46T: 88.4%
R155S: 87.2%
Y53H: 99.6%
T154D: -15.3%
H55F: 98.2%
L29I: 100%
R155G: 75%
D3L: 101%
F5P: 101%
E109D: 115%
N114V: -2.83%
R90Q: 103%
I52P: 61.3%
T119V: 95.3%
R46N: 90.6%
N165A: 37.5%

Block 5
Target: RNA binding protein fox-1 homolog 2, RRM domain, GST-SBP tag (RBFOX2, Homo sapiens, UniProt O43251-10, residues 100-194)
Method: RNA Bind-n-Seq
Form: RNA
Matrix: in vitro
Tested at: 365 nM
Setting: natural RNA segment, single round, ends assumed
Baseline: no-protein control
Reading: higher = stronger binding
Measurement: RBNS enrichment (R)
Shared flanks, not repeated: GGGAGUUCUACAGUCCGACGAUC … UGGAAUUCUCGGGUGCCAA
Residues (chain): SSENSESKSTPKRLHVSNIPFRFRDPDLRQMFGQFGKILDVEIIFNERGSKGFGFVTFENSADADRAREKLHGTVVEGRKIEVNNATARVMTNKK
UUGUUGUCAACUGUCACUGUUUCUUCCAAAAGUCACAAUUUGUACAAGAACCUUUGCUUUCCUUAGACUUGUUCUGCAUUUUAUUUUUUAUUUCUCACCAAAAUAAAAGC: 0.533
GUAUCCCUCACUUACCAAGAGGAGAAUGGAGGGAUAAUGGACUCACCCUAGCCUAGGGCUUCGACAUUGCAUGCUGGGAUCCAGCUCCUACCCUUCCUGCACUCCCUUCC: 8.25
AAUUGUAUCCUGGUUUCCCCAUCUCCUUAUCCUGAUUUCUCAUUGCUCUUCUGUCCUGCCUCACUGUAACUGCCUCCAUUCUGUGCAGUCUACAGUAAGAAUGCCUGCUU: 0.648
CGCCUGUGACCACCACCCCAACAAACCAUCCAGUGACAAACCAUCCAGUGGAGGUUUGUCGGGCACCAGCCAGCGUAGCAGGGUCGGGAAAGGCCACCUGUCCCACUCCU: 0.297
AACAAAAAAACCUCUUAAUAUUCUGGAGUCAUCAUUCCCUUCGACAGCAUUUUCCUCUGCUUUGAAAGCCCCAGAAAUCAGUGUUGGCCAUGAUGACAACUACAGAAAAA: 0.554
GCAGCACCUUCUUAGCGAUCUAGGCCUGGCAAGAGCUCUGGCCCCAAGGCCUCCUCUUCCCAGGGGCUGCCAAGUCCUGGCCCUGGCCCUGGCAUAUCACCCCGCACUGU: 2.52
CUGAGAUUCCAGAUAGAGAGGCUUCGGUUCCUGCUACUUCCCUGUUUGUCUGGGGAGUAGAGGAAUGAGUAGAACUGAUUUAGUUGUCUGUGGUGGGUGGGGAUAAUUUU: 1.27
UUCGUCACUGAAGAAAUCAUUCCCCUCGGGAAUCAGGAGUGCCUGGAGCACUGUGGGGACGGACUCCGCCUGCUGUUCCCGCGCUGAGCUACAGGACUCCCGAGUGUGAG: 0.525
CAGCUUGGCUUGGCUUUGGCUGUUGGGGAGGAGUCCCUGCCAUCCCGGUGAGCCUGGGGCUGUUGCUUAGGGUCUUCUGGGUGGACACGUGGAGAAAGAGAAGGCAAACG: 0.412
GGAGUUACAGGCAAGUUUGGUAAAAGUUAAGCUAGUAUCAUAGUCAUUUAAAAUUGUAAUAGAUCUUAACCAUUUUCCCCCUCACCCUAACUCUCUUAUUCUGCCGCCAC: 0.326
UGCUUAUUAUGGUAAAAUAAAAUUGGAAAAAAUUAAAACUGACCUAUAAGAGUGUUAAGGACCUAAUAGAGUGACAUAUAUAAAUUAAGCAUAAAAUAUGUAACCAGGAA: 0.582
GCCCGCUAUUUAGAGCCAUCCCUCAGUCAGCUGGCAGGGACAAGCCAACGCCAGGUAGCAUGUGGCCACCCUUGCCCAGUGUCUGUGGCCUGGCAAGUGGCCACGCCCUG: 2.99

Block 6
Target: Histone acetyltransferase KAT6A, both winged helices, GST fusion (KAT6A, Homo sapiens, UniProt Q92794, residues 1-181)
Method: protein binding microarray
Form: double-stranded DNA, one strand shown
Matrix: in vitro
Tested at: not given
Setting: 8-mer, flanks averaged, mean of 2 arrays, mostly near background
Baseline: not given
Reading: higher = stronger binding
Measurement: E-score
Residues (chain): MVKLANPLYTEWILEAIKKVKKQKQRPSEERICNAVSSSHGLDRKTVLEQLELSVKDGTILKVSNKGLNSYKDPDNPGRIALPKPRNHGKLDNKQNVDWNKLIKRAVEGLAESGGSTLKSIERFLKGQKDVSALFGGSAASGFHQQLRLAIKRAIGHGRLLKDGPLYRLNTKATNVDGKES
CCGGATCA: 0.0984
AAACGGGT: 0.282
AGCTACAC: -0.00845
ATTGTGGG: -0.209
GAGGTGAA: -0.0854
CAGTGACC: -0.131
CCGCTCCA: 0.15
CTGATGAA: -0.0939
AAACGGTT: 0.0976
ACTCCCTG: -0.314
CCCTGTAC: -0.152
GATCTCGA: 0.0841
CAGACCAG: -0.111
ACGGGGTA: 0.143
AACTACCG: 0.118
GACCTACA: 0.0119
CGTAATGA: 0.0727
ACAATATA: 0.0555
TAGTACTA: -0.11
ACCAGCCT: -0.108
GTGGAGGA: -0.12
GGGGTCAC: -0.0408
ACAGACAT: -0.0702
GGGGCCCC: -0.129
ATTGTAAA: -0.0786

Some of these lines once more (block 4):
L29I: 100%
R155G: 75%
D3L: 101%
F5P: 101%
E109D: 115%
N114V: -2.83%
R90Q: 103%
I52P: 61.3%
T119V: 95.3%
